Published values pooled from the literature.
Parts stem from different laboratories: compare values within a part only.
Chain of UniProt P10721 (whole entry, unmodified, looked up): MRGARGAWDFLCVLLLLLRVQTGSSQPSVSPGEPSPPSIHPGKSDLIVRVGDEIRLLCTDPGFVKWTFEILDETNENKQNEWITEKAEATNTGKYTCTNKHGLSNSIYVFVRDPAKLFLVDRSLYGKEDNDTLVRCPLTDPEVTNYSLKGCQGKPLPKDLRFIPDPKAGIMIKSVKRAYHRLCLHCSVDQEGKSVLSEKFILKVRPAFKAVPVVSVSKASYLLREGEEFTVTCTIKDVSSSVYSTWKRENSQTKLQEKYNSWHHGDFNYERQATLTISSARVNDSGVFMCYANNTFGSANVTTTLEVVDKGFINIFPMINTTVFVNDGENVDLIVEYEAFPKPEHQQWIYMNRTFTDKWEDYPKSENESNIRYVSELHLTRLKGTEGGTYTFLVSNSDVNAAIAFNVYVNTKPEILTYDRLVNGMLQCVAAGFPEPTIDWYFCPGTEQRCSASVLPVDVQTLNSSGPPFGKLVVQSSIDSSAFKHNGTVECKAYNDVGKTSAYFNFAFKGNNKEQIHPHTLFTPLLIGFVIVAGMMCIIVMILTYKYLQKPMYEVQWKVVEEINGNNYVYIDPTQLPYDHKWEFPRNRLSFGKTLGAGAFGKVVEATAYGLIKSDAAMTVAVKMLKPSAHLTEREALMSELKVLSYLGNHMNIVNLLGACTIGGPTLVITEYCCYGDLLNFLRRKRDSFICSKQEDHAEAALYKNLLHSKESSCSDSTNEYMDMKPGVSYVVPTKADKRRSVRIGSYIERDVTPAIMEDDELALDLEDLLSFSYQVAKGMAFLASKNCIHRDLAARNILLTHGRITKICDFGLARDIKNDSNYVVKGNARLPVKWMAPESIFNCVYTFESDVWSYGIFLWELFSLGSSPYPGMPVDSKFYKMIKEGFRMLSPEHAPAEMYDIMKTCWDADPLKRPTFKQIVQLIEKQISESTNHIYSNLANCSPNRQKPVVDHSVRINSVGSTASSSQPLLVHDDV
Chain of UniProt P09619 (whole entry, looked up): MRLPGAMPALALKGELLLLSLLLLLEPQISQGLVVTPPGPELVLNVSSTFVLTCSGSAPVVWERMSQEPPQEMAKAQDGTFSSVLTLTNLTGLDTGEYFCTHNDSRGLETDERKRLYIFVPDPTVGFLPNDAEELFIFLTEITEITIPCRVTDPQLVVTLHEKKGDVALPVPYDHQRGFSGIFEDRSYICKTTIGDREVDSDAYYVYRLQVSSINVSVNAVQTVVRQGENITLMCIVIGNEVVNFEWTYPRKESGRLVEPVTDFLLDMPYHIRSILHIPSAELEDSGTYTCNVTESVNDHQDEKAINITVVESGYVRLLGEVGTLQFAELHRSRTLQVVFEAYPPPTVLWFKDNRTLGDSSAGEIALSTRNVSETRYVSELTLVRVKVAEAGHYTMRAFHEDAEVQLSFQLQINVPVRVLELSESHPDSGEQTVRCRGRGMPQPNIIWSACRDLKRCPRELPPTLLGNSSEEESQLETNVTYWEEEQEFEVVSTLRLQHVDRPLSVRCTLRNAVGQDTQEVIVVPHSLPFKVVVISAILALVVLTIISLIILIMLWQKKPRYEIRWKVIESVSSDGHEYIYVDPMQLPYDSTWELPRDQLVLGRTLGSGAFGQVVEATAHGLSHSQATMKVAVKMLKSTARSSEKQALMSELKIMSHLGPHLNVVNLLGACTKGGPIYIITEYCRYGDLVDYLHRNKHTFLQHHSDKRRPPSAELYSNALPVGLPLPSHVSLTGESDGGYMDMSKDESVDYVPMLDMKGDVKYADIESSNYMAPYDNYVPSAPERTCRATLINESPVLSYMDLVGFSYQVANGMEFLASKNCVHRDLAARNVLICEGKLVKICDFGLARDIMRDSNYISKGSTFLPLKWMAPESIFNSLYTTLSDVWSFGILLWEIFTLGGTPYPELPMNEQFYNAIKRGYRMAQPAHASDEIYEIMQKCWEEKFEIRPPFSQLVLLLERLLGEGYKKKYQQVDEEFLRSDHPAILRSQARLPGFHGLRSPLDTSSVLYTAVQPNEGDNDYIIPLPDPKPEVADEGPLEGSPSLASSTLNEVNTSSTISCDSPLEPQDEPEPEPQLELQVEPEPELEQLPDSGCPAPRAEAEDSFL
Chain of UniProt O95819 (whole entry, looked up): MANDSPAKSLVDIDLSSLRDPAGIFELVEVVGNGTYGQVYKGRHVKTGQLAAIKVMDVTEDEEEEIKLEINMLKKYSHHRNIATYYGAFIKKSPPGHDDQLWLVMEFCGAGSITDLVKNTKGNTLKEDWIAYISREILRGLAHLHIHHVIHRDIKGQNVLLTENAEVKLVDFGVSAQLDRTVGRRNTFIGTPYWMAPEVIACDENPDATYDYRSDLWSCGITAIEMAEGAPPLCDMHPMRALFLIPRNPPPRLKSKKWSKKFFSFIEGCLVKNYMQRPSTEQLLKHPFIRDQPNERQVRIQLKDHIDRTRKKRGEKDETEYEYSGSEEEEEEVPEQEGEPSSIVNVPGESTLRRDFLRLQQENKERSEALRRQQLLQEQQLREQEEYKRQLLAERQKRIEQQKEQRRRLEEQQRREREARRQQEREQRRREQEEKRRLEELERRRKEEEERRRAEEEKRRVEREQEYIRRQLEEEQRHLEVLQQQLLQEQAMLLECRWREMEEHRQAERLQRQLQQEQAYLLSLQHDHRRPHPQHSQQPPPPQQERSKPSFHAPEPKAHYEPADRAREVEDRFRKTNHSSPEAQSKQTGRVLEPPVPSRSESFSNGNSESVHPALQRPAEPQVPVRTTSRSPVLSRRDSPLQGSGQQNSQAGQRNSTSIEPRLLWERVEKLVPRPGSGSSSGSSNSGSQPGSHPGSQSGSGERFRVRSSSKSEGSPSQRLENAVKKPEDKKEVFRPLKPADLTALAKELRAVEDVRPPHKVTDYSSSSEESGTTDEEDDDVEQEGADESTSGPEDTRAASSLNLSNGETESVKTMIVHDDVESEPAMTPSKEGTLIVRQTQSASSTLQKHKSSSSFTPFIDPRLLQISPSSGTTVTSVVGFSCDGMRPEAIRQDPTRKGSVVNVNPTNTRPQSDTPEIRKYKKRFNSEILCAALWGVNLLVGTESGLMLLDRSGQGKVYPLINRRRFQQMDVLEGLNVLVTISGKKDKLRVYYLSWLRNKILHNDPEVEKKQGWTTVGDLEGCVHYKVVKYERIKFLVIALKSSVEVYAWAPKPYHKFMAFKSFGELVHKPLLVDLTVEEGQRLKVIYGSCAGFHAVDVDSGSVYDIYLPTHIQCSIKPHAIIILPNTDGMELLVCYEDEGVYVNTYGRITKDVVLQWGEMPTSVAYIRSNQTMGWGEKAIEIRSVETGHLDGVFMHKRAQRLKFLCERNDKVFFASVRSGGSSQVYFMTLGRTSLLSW
Chain of UniProt Q00526 (whole entry, looked up): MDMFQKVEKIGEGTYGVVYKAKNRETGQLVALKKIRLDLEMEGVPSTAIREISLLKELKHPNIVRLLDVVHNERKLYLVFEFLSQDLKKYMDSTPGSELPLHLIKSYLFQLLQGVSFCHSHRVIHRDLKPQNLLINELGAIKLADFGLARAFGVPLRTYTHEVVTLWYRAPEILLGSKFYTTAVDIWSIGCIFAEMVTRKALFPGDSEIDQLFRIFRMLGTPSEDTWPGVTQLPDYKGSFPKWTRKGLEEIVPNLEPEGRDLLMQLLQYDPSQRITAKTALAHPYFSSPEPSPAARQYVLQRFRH
Chain of UniProt P00519 (whole entry, unmodified, looked up): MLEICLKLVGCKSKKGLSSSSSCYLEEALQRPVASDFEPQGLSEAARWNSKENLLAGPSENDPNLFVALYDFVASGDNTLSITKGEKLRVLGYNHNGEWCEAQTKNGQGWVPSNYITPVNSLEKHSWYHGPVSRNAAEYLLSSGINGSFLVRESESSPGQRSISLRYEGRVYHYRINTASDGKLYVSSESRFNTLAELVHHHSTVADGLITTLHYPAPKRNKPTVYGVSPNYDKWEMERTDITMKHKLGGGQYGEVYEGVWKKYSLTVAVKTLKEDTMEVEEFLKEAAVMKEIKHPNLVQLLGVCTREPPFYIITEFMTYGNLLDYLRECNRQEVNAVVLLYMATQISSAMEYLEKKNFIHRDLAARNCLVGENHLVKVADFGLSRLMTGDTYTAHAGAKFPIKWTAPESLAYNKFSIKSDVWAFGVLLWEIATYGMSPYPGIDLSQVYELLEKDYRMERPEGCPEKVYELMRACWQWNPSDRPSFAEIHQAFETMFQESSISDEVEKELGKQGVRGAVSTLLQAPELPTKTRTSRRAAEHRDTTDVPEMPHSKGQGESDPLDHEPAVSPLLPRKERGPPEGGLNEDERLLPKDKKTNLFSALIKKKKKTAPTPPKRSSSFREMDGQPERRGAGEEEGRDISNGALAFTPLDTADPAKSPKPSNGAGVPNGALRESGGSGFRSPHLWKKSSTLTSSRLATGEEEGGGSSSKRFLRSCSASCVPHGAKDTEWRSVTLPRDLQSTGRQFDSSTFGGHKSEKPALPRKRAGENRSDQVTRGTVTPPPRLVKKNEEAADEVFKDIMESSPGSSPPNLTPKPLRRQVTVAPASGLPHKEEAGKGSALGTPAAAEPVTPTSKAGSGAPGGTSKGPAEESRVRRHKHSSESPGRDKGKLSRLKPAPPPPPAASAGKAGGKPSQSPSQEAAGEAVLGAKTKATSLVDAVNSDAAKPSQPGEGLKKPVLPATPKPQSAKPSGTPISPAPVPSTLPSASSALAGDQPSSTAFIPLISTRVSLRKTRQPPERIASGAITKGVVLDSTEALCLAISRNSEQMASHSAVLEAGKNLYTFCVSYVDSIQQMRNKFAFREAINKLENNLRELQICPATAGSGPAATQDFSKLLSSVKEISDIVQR

Set 1 — species: mouse; medium: microsomes or S9; tested at: 2 µM; time: 0.5 h
SMILES	remaining compound [%]
Cc1cc(=O)n(CCNC(=O)c2nc3nc(C)cc(C)n3n2)cn1	97.7
CN(C[C@@H]1C[C@H](F)CN1Cc1cncnc1)c1cnc(C#N)cn1	> 100
COc1ccc(OC)c(NC(=O)C2Cn3cccc3C(=O)N2C)c1 (centres unmarked)	13.4
c1ccc(-c2nc3cccnc3nc2N2CCCCC2)cc1	< 1
O=C(C1CCCN1S(=O)(=O)c1ccc(-c2ccc(=O)[nH]n2)s1)N1CCc2ccccc21 (centres unmarked)	0.312
O=C1CC(c2ccc(S(=O)(=O)N3CCOC(COc4ccccc4)C3)cc2)CN1 (centres unmarked)	54.4
Cc1ccc(OCCOCCN2CC(C)OC(C)C2)c(Br)c1 (centres unmarked)	0.143
CCCC(=O)OCCNc1cc(SCC(=O)OCC)c2nonc2c1[N+](=O)[O-]	0.00269
COC(=O)N(C)CCCC1(C)C(=O)N(C)c2ccc(O)cc21 (centres unmarked)	24.5
COC(=O)c1cccc(OCCn2c(=O)[nH]c3cc(F)c(F)cc3c2=O)c1	1.62

Set 2 — cell line: mouse MPNST tumor cells; method: high-content nuclear imaging; item: cell number; tested at: 10 µM; time: 12 h; setting: mean of 2 replicates; baseline: plate mean; direction: higher = more cells
Structure (SMILES)	nuclei count [z-score]
Cn1c([N+](=O)[O-])cnc1COC(N)=O	1.07
C=C(CC)C(=O)c1ccc(OCC(=O)O)c(Cl)c1Cl	-1.12
C[C@H]1C[C@@H]2[C@H]([C@@H](O)C[C@@]3(C)[C@H]2CC[C@]3(O)C(=O)CO)[C@@]2(C)C=CC(=O)C=C12	3.93
COc1ccn2ncc(-c3nc4[nH]nc(NC(=O)c5ccc(F)cc5)c4cc3F)c2c1	0.428
CC(=O)[C@H]1CC[C@H]2[C@@H]3C[C@H](C)C4=CC(=O)CC[C@]4(C)[C@H]3[C@@H](O)C[C@]12C	-0.832
COc1ccc(-c2ccc(=N)n(CCCC(=O)O)n2)cc1	-0.158
CN[C@@H](C)C(=O)N[C@H](C(=O)N1CCC[C@H]1C(=O)N[C@@H]1CCCc2ccccc21)C1CCCCC1	1.84
O=C1[C@H]2CCCC[C@H]2C(=O)N1CCCCN1CCN(c2nsc3ccccc23)CC1	-1.47

Set 3 — tested at: 1 µM
Compound: CS(=O)(=O)c1cc(C2(NC(=O)c3cncc4c3cnn4-c3ccc(F)cc3)CC2)ccn1
target	effect on	method	remaining binding
MAP4K4 (Homo sapiens, UniProt O95819)	cell-free assay	competition with immobilised ligand	88%
RIOK1 (Homo sapiens, UniProt Q9BRS2)	cell-free assay	competition with immobilised ligand	80%
GRK4 (Homo sapiens, UniProt P32298)	cell-free assay	competition with immobilised ligand	100%
TESK1 (Homo sapiens, UniProt Q15569)	cell-free assay	competition with immobilised ligand	62%
SRPK1 (Homo sapiens, UniProt Q96SB4)	cell-free assay	competition with immobilised ligand	100%
EGFR (Homo sapiens, UniProt P00533, G719S)	cell-free assay	competition with immobilised ligand	100%
KIT (Homo sapiens, UniProt P10721, D816V)	cell-free assay	competition with immobilised ligand	100%
MAPK11 (Homo sapiens, UniProt Q15759)	cell-free assay	competition with immobilised ligand	100%
PDGFRB (Homo sapiens, UniProt P09619)	cell-free assay	competition with immobilised ligand	93%
SIK3 (Homo sapiens, UniProt Q9Y2K2)	cell-free assay	competition with immobilised ligand	81%
LCK (Homo sapiens, UniProt P06239)	cell-free assay	competition with immobilised ligand	100%
CILK1 (Homo sapiens, UniProt Q9UPZ9)	cell-free assay	competition with immobilised ligand	100%
CDK16 (Homo sapiens, UniProt Q00536)	cell-free assay	competition with immobilised ligand	94%
HUNK (Homo sapiens, UniProt P57058)	cell-free assay	competition with immobilised ligand	100%
Mast/stem cell growth factor receptor Kit, autoinhibited (KIT, Homo sapiens, UniProt P10721)	cell-free assay	competition with immobilised ligand	100%
CDK8 (Homo sapiens, UniProt P49336)	cell-free assay	competition with immobilised ligand	100%
FLT3 (Homo sapiens, UniProt P36888)	cell-free assay	competition with immobilised ligand	100%
BRAF (Homo sapiens, UniProt P15056)	cell-free assay	competition with immobilised ligand	87%
EGFR (Homo sapiens, UniProt P00533, del752-759)	cell-free assay	competition with immobilised ligand	98%
Macrophage colony-stimulating factor 1 receptor, autoinhibited (CSF1R, Homo sapiens, UniProt P07333)	cell-free assay	competition with immobilised ligand	100%
ACVR2B (Homo sapiens, UniProt Q13705)	cell-free assay	competition with immobilised ligand	100%
WNK4 (Homo sapiens, UniProt Q96J92)	cell-free assay	competition with immobilised ligand	97%
SGK2 (Homo sapiens, UniProt Q9HBY8)	cell-free assay	competition with immobilised ligand	67%
LRRK2 (Homo sapiens, UniProt Q5S007)	cell-free assay	competition with immobilised ligand	43%
Tyrosine-protein kinase ABL1, phosphorylated (ABL1, Homo sapiens, UniProt P00519, F317I)	binding	–	79%

Set 4 — effect on: enzyme activity; action: inhibitor; tested at: 0.5 µM; baseline: control
Compound: Nc1[nH]nc2nnc(-c3c(-c4ccccc4)nn4ccccc34)cc12
target	remaining activity [%]
MATK (Homo sapiens, UniProt P42679)	95.6
PASK (Homo sapiens, UniProt Q96RG2)	99.8
FYN (Homo sapiens, UniProt P06241)	95
FER (Homo sapiens, UniProt P16591)	90.8
MARK3 (Homo sapiens, UniProt P27448)	99.3
NEK11 (Homo sapiens, UniProt Q8NG66)	95.1
TAOK3 (Homo sapiens, UniProt Q9H2K8)	101
PRKX (Homo sapiens, UniProt P51817)	101
CDC42BPA (Homo sapiens, UniProt Q5VT25)	89.7
Cyclin-dependent kinase 3, with cyclin E (CDK3, Homo sapiens, UniProt Q00526)	96.8
ITK (Homo sapiens, UniProt Q08881)	90.8
FLT4 (Homo sapiens, UniProt P35916)	89.9
ALK (Homo sapiens, UniProt Q9UM73)	108
NLK (Homo sapiens, UniProt Q9UBE8)	102
STK25 (Homo sapiens, UniProt O00506)	84.2
PKN1 (Homo sapiens, UniProt Q16512)	98.2
HIPK1 (Homo sapiens, UniProt Q86Z02)	99.7
FGR (Homo sapiens, UniProt P09769)	92.9
AKT1 (Homo sapiens, UniProt P31749)	98
SRC (Homo sapiens, UniProt P12931)	100
LIM domain kinase 1 (LIMK1, Homo sapiens, UniProt P53667)	98.2
Insulin receptor (INSR, Homo sapiens, UniProt P06213)	78.3

Repeated from above (set 3):
target	effect on	method	remaining binding
Macrophage colony-stimulating factor 1 receptor, autoinhibited (CSF1R, Homo sapiens, UniProt P07333)	cell-free assay	competition with immobilised ligand	100%
PDGFRB (Homo sapiens, UniProt P09619)	cell-free assay	competition with immobilised ligand	93%
LRRK2 (Homo sapiens, UniProt Q5S007)	cell-free assay	competition with immobilised ligand	43%
TESK1 (Homo sapiens, UniProt Q15569)	cell-free assay	competition with immobilised ligand	62%
ACVR2B (Homo sapiens, UniProt Q13705)	cell-free assay	competition with immobilised ligand	100%
EGFR (Homo sapiens, UniProt P00533, G719S)	cell-free assay	competition with immobilised ligand	100%
SGK2 (Homo sapiens, UniProt Q9HBY8)	cell-free assay	competition with immobilised ligand	67%
BRAF (Homo sapiens, UniProt P15056)	cell-free assay	competition with immobilised ligand	87%
EGFR (Homo sapiens, UniProt P00533, del752-759)	cell-free assay	competition with immobilised ligand	98%
SIK3 (Homo sapiens, UniProt Q9Y2K2)	cell-free assay	competition with immobilised ligand	81%
